Published values pooled from the literature.
A part holds a random share of what one study measured. “And” joins repeats or separate records; there may be more than shown.
UniProt P10721, sequence (whole entry, unmodified, looked up): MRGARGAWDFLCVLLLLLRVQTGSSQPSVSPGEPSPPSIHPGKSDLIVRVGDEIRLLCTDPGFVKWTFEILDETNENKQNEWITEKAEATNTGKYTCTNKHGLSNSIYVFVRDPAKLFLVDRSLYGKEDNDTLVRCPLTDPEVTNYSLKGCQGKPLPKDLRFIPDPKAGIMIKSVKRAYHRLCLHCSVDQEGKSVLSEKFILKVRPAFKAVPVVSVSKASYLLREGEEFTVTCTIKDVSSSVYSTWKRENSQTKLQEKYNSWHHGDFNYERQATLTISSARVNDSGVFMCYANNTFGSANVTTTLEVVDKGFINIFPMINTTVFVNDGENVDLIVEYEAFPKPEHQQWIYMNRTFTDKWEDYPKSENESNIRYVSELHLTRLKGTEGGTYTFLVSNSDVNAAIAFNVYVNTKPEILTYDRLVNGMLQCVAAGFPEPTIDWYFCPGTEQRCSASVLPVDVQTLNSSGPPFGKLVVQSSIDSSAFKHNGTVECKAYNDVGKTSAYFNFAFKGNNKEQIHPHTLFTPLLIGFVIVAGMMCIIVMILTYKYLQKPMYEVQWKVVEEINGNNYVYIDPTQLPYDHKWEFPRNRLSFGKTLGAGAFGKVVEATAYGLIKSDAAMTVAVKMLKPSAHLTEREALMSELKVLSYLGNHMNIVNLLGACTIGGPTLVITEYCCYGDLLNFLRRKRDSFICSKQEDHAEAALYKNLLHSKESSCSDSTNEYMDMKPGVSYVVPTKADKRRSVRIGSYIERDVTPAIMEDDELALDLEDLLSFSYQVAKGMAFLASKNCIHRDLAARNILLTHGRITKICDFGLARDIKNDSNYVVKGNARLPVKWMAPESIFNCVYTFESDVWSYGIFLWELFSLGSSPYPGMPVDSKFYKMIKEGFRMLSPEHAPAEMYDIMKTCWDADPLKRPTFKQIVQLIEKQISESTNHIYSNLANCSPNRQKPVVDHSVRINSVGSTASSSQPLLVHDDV
UniProt Q96BR1, sequence (whole entry, looked up): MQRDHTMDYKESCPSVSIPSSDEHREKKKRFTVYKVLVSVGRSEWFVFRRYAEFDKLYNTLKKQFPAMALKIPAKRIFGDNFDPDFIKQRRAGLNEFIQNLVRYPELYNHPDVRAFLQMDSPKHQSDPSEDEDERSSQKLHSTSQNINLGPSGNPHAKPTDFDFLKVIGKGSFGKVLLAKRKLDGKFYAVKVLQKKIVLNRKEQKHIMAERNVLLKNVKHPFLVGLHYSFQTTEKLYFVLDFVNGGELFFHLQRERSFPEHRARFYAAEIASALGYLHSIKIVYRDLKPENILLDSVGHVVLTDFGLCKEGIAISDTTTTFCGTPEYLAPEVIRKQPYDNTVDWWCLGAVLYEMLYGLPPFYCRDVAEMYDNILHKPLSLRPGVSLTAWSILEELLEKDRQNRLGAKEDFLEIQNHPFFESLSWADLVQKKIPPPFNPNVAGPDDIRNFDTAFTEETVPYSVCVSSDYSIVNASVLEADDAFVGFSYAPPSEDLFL
UniProt P51812, sequence (whole entry, looked up): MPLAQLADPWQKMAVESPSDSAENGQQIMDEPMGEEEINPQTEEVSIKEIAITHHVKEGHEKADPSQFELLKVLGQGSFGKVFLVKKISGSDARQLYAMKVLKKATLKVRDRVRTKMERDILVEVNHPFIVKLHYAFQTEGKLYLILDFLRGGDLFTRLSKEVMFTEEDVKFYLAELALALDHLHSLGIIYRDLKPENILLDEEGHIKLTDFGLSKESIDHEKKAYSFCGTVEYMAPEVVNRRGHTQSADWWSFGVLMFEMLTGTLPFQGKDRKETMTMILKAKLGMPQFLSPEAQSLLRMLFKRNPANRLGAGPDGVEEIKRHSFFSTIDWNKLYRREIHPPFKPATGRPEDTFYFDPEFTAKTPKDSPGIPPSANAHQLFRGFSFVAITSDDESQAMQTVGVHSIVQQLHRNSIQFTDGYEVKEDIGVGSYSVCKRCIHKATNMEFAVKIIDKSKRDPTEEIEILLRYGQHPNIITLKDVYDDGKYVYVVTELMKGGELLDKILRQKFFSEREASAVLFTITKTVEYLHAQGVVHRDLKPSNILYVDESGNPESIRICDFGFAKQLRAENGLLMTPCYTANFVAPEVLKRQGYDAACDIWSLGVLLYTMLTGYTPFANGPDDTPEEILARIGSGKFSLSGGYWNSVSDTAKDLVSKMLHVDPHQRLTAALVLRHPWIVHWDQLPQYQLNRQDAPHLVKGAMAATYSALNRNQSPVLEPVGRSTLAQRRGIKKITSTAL
UniProt P21860, sequence (whole entry, looked up): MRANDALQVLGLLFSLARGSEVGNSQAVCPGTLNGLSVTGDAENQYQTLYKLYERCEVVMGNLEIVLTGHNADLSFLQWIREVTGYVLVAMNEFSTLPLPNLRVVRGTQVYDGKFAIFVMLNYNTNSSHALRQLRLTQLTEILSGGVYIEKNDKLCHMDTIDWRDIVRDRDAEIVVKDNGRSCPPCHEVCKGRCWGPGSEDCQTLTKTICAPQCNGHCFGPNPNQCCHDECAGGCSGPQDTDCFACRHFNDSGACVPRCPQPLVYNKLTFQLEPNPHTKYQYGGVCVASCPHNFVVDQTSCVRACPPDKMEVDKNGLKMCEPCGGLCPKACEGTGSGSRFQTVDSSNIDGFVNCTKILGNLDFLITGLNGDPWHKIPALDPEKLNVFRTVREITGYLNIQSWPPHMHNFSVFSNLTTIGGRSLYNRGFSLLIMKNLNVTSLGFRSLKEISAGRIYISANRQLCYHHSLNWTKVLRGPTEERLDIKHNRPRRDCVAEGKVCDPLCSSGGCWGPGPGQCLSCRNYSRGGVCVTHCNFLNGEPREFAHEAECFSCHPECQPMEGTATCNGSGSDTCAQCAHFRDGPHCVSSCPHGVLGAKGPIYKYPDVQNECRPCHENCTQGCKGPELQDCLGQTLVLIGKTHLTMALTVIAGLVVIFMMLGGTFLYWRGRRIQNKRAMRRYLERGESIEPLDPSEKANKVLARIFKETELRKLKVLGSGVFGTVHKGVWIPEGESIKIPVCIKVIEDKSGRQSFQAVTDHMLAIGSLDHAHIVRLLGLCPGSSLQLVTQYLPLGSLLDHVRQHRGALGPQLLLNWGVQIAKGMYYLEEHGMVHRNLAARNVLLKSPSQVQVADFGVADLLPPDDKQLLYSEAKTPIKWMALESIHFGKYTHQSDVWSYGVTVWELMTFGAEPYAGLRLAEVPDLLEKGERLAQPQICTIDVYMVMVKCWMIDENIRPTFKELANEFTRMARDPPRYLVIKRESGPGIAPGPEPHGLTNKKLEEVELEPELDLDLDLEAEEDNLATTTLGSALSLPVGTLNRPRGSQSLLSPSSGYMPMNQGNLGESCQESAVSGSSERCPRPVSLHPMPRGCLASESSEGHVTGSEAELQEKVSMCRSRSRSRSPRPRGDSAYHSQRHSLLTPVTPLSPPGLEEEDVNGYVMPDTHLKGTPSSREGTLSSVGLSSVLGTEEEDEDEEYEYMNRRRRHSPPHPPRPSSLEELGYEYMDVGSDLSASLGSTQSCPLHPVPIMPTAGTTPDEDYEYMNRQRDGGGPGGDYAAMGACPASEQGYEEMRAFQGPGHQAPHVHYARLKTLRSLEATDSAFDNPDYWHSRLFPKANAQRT
UniProt Q13464, sequence (whole entry, looked up): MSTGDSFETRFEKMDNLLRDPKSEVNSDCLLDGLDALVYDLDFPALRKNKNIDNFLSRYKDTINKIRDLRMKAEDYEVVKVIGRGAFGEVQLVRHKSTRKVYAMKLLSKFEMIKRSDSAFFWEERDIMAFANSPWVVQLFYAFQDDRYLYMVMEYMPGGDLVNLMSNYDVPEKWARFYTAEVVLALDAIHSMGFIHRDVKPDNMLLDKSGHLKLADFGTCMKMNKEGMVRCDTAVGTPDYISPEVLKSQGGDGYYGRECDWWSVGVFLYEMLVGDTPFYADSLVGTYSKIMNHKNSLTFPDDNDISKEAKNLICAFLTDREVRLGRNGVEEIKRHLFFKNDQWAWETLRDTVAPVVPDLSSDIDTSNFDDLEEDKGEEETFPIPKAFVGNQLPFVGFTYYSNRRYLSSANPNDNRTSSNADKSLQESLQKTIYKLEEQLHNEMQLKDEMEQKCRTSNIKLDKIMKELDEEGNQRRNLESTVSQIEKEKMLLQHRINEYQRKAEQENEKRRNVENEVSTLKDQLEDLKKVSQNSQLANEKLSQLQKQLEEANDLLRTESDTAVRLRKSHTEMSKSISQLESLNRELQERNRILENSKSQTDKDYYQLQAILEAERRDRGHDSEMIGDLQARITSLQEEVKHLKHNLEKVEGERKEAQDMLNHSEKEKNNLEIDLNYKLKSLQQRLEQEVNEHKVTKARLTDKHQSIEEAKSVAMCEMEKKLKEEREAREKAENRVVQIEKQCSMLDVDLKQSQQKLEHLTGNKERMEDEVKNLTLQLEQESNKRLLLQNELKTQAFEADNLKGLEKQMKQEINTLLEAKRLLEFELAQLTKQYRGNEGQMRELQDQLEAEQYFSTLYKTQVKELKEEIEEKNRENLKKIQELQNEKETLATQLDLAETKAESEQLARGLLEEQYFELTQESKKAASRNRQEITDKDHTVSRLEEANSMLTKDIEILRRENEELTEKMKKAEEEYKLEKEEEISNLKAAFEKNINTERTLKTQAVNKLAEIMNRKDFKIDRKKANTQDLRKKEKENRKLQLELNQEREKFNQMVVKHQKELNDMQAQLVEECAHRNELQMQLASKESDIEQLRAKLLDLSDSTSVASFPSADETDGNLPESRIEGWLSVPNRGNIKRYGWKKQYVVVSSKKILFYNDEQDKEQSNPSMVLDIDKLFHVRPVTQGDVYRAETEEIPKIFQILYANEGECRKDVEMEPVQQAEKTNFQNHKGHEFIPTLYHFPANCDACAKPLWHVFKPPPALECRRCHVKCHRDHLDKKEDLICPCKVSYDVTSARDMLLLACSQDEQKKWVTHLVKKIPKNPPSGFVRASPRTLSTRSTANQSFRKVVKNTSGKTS

Series 1
Organism: Sarcocystis neurona
Observed: parasite growth
Tested at: concentration not given
Setting: second screen
Relative to: untreated
Measurement: log2 fold change
COc1cc(OC)c(C(=O)CCCN2CCCC2)c(OC)c1.Cl: 0.51
CC(C)NCC(O)c1ccc(O)c(O)c1.Cl (centres unmarked): -0.1
CCN(CC)C(=O)C1(c2ccccc2)CC1CN.Cl (centres unmarked): 0.35

Series 2
Species: mouse
Medium: microsomes or S9
Tested at: 2 µM
Time: 0.5 h
Measurement: remaining compound
COc1cccc(CN(C)c2oc(C(C)(C)C)nc2C#N)c1: 0.207%
CCC(CC)(CC)S(=O)(=O)Cc1csc(C(C)(C)C)n1: 0.709%
CN1C(=O)C2(NCCc3c2[nH]c2ccccc32)c2ccccc21 (centres unmarked): 30.6%
CC1(C)OC2CC(=O)OCC23C1CC(=O)C1(C)C3CC[C@@]2(C)[C@H](c3ccoc3)OC(=O)C3OC312 (some centres unmarked): 38.1%
CC(Nc1ccc2cc[nH]c2n1)c1cn2ccsc2n1 (centres unmarked): 14.5%

Series 3
Compound: CNC(=O)Nc1ccc2c(c1)CC[C@@]21OC(=O)N(CC(=O)N(Cc2ccc(F)cc2)[C@@H](C)C(F)(F)F)C1=O
Observed: cell-free assay
Technique: competition with immobilised ligand
Tested at: 1 µM
Measurement: remaining binding
Rho-associated protein kinase 1 (ROCK1, Homo sapiens, UniProt Q13464): 72%
Phosphatidylinositol 4,5-bisphosphate 3-kinase catalytic subunit delta isoform (PIK3CD, Homo sapiens, UniProt O00329): 92%
Epidermal growth factor receptor (EGFR, Homo sapiens, UniProt P00533, G719S): 95%
Mast/stem cell growth factor receptor Kit (KIT, Homo sapiens, UniProt P10721, T670I/V559D): 93%
Serine/threonine-protein kinase Sgk3 (SGK3, Homo sapiens, UniProt Q96BR1): 68%
Hepatocyte growth factor receptor (MET, Homo sapiens, UniProt P08581): 88%
Receptor tyrosine-protein kinase erbB-3 (ERBB3, Homo sapiens, UniProt P21860): 89%
Mast/stem cell growth factor receptor Kit (KIT, Homo sapiens, UniProt P10721): 100%
Dual specificity mitogen-activated protein kinase kinase 7 (MAP2K7, Homo sapiens, UniProt O14733): 97%
Ephrin type-B receptor 1 (EPHB1, Homo sapiens, UniProt P54762): 97%
Uncharacterized serine/threonine-protein kinase SBK3 (SBK3, Homo sapiens, UniProt P0C264): 93%
Ribosomal protein S6 kinase alpha-3, N-terminal kinase domain (RPS6KA3, Homo sapiens, UniProt P51812): 88%

Series 4
Cell line: mouse MPNST tumor cells
Technique: high-content immunofluorescence imaging
Refers to: nuclear SOX9
Tested at: 10 µM
Time: 12 h
Setting: mean of 2 replicates
Relative to: DMSO control
Direction: higher = more nuclear SOX9
Measurement: nuclear SOX9 intensity
Cc1cc(-c2nncc3c(C(C)(C)C)c(OCc4ncnn4C)nn23)no1: 90.6 % of DMSO
COc1cc(C(=O)N2CCOCC2)cc(OC)c1OC: 94.8 % of DMSO
CCS(=O)(=O)CCn1c([N+](=O)[O-])cnc1C: 98.7 % of DMSO and 94.7 % of DMSO
OCc1cc(C(O)CNCCCCCCOCCCCc2ccccc2)ccc1O (centres unmarked): 130 % of DMSO
COc1cc2c(CCNC(C)=O)c[nH]c2cc1Cl: 93.1 % of DMSO

Mixed results
CCCN1C(=O)[C@H](CC(C)C)NC(=O)[C@@H](N(C)C(=O)[C@H](CC2CCC2)NC(=O)[C@@H]2C[C@@H](F)CN2C(=O)[C@@](C)(O)C(F)(F)F)CCCCNC(=O)C2(CC2)NC(=O)[C@@H]1Cc1cc(Cl)ccc1Cl
tumour volume (mouse NCI-H1048 xenograft; iv, 100 mg/kg once daily, day 0): 250 mm3 and 280 mm3 and 312 mm3 and 233 mm3 and 182 mm3 and 193 mm3 and 237 mm3 and 271 mm3

For quick reference, copied from above (series 3):
Hepatocyte growth factor receptor (MET, Homo sapiens, UniProt P08581): 88%
Serine/threonine-protein kinase Sgk3 (SGK3, Homo sapiens, UniProt Q96BR1): 68%
